Assay results from different studies.
A part holds a random share of what one study measured. Positions count from the first letter of the parent shown.

Set 1 — target: CCNE2, cyclin fold, Cln2 fusion (human); technique: yeast growth competition, sequencing; matrix: yeast; notes: strong parent motif; relative to: not given; reading: higher = stronger binding
Starting sequence: RBL1 docking peptide (human); GSAKRRLFGEDPP
Variant	normalised enrichment score
L7K	0.765
E10L	3.33
P13F	3.74
R5A	-0.0173
L7Q	0.731
A3L	1.12
K4T	2.06
R6S	1.39
S2I	2.66
D11I	3.14
F8R	-0.133
E10W	2.49
P13L	5.01
G9I	5.4
S2G	4.66
L7G	-0.261
P12W	4.52
K4A	1.43
G9W	5.02
E10T	3.5
K4H	0.424
F8E	-0.4
S2R	4.1
R5A L7A	-0.418
P12Y	4.29

Set 2 — technique: EMSA with sequencing; form: double-stranded DNA, one strand shown; matrix: in vitro; concentration: 10 and 20 nM; relative to: negative control set to 0; reading: higher = stronger binding
Target: Hepatocyte nuclear factor 3-alpha (Foxa1, Mus musculus, UniProt P35582, residues 1-468, full length assumed)
Sequence of UniProt P35582 (whole entry, looked up): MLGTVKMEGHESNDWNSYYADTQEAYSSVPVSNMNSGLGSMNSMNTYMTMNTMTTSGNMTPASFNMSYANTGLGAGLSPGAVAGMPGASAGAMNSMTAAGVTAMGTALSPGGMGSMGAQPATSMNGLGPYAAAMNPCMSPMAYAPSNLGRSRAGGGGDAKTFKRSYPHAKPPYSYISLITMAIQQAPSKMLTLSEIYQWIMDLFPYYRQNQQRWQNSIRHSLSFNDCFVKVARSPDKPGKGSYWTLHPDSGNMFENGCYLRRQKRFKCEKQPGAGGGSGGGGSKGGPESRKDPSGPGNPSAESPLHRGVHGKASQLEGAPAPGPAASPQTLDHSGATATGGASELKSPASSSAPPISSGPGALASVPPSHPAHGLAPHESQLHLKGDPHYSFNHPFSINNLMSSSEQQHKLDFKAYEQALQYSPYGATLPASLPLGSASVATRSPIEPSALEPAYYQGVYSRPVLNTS
Notes: whole designed probe, mean of two concentrations, ends assumed
Constant ends, left off below: GTGAGCGGTGCCCATTGATGGGGAAC … TTTCACTGGGATCGTGGGGAC
Sequence	normalised bound fraction
ACTGTAGTGACTCATGTCCAGCCCCAGTGCGAGTGTGTTCCTCTCTAAAGAAAACCCAGTGTGTGTGTTCTCTCTAAAGAAAATGTATTACTAAGTAAACAAAAAAAGCTACTAAGCTTAAAGTTACCAAAACAAGTTCCAGATGAGCAGGGCCCAGAGGCATTTTCTGAAGAAGAGCCGTGCCCTGCCTTAT	0.559 ratio
CAAGTTTGTGGTCCAGGAGCAACAGGTTATGCCATACAGCCTAGGTGTGTAGTAGGCTACACACCGTCTATGTTTGTGTTGTACACTCTACAATGTTTGCACAATGATGAAATCTTCTCACCATGACTCATGAACATACCCCTGTTGTTAAGCGATACATGACTGTACTTTTTTTAAAAAGTCCAAGGATATA	0.413 ratio
ACATTCTTATAACCTATATGACATTATATTAAATTCCATTTAAAACCGTAGCATAAGAAGCATTGTATCTGGCACAAAAATACAAAGGGATTTTGTTTACTGAGAGACAAGATAAACTATATACTAGAACTAAAAGCTCTATAAAATATTTAATGAAAAATTCTGTAGTAATTTTATGTGAGGTTTTTTAAAC	0.193 ratio
CAACCAAGCAGTATTAGAGCAAATAAGCAAATTCCTCAGTTGAGAGTTAATCTTGCAAACATCCTGCTGTAGGGAAAGGTCATGGCCTGATCTGTAAACACGGGAAGAGAGCCATTGGACTTGGGAATCAGATGCAGCCTCACACGGCTGCAGACCGCAAGACTCATCCTAGACACAGCTTATGTCACTGTGA	0.203 ratio
GGCTGTTTAGGTAGCTGGCAGGAAGTAGTATGTGTCTCCAGAGCATAAAATTGGCCGCAAAGTAGGTAGGGCCTATGAAAATACTGATGTAATGTAAACATTGTATTTCTAAACTATTTACATGCTCATCCCTACCCTACATGAGAGGTCAGCTCTACCACTAAGAGGTCCCACATGGACTTCTACAATATTC	0.485 ratio
TTTCCAGCCCTTAGTTTCTGGCATTTAACCTGACTCTGGTCCCTGAATGGCATGGGAGTGCTTTCAACCACAGGTTTCCACATTCATGCAAAAGCAAACAAGTGTGATCTACAGAGCTGACTCATTCATCTTTATTTGCTTTGTGTTTCCAATGGAGAAAGAGCTTGGGAAGGGAGGATCCTAATTGTCTAAA	0.441 ratio
AAGTGAAGATGATAAATATGATGGTTTGGGAATTTTTGCCTGGCTGCCATATGCACGAGGAACTAACCAGAGTCTGAAACAGAGAAACCAATGTAAACAAATAACAGAGTTTTTAATTTATATTGTCAATAAATATTAATCAGATATTTTATCAGTTCCTAAAAATGTTGTTTTAATATTTTTCCTACTTTGG	0.507 ratio
ATAAAGATATTATGGTTATATAGAAAAATATCCTTATTTTGACGGCTGTACCATTTGAAGTATTTAGGGGACAAATGTCATGATGCCTATCTAAAATTACTTTTAAATTGTTCAGCAAAAATAGCGGTATATAAGTATTTATAATAGATAGTAGATGAATCAAATATGGTCAAATGTTAGTTTTTGTTTTTGA	0.059 ratio

Set 3 — target: FOS, bZIP domain (human); technique: DHFR protein complementation; matrix: yeast; relative to: wild-type JUN-FOS pair; reading: higher = stronger binding
Notes: single substitutions, most at no-binding floor
Starting sequence: JUN, bZIP domain (human); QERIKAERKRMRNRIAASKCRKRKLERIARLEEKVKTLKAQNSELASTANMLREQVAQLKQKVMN; partner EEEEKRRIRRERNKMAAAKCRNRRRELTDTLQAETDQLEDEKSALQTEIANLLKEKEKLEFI
Variant	binding fitness
T48D	-0.463 natural log
A57L	-0.242 natural log
V56Q	-1.38 natural log
A46G	-0.403 natural log
E44Q	-0.0392 natural log
Q58T	-0.0468 natural log
L38V	-1.06 natural log
A46L	-0.0702 natural log
A29G	-0.185 natural log
L52D	-1.46 natural log
M51A	0.0669 natural log
A57D	-0.0169 natural log
A57S	-0.172 natural log
L31W	-0.455 natural log
V56S	-1.29 natural log
K39W	-1.14 natural log
T48F	-0.0488 natural log

Set 4 — target: UBE2H UBC core domain (UniProt P62256); technique: yeast two-hybrid; matrix: yeast; notes: mostly zero background; relative to: not given; reading: higher = stronger interaction
Sequence of UniProt P62256 (whole entry, looked up): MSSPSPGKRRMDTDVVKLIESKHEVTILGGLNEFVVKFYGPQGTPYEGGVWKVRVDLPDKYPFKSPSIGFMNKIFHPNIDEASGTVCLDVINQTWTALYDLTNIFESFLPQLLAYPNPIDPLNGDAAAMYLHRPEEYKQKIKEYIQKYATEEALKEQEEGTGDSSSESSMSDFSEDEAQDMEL
B1: RNF19A RING domain (UniProt Q9NV58); chain ISKQIGDFIECPLCLLRHSKDRFPDIMTCHHRSCVDCLRQYLRIEISESRVNISCPECTERFNPHDIR
B2: SYTL4 RING domain (UniProt Q96C24); chain RGSQHYSDRTCARCQESLGRLSPKTNTCRGCNHLVCRDCRIQESNGTWRCKVCAKEIELKKAT
B3: DTX2 RING domain (UniProt Q86UW9); chain EELKVPPDEDCIICMEKLSTASGYSDVTDSKAIGSLAVGHLTKCSHAFHLLCLLAMYCNGNKDGSLQCPSCKTIYGEKTGTQ
B4: RFWD3 RING domain (UniProt Q6PCD5); chain ASMDEEEGDTCTICLEQWTNAGDHRLSALRCGHLFGYRCISTWLKGQVRKCPQCNKKARHSDIVV
Sequence	lacZ reporter activity
GSDDEEIPFKCFICRQSFQNPVVTKCRHYFCESCALQHFRTTPRCYVCDQQTNGVFNPA (RNF113A RING domain (UniProt O15541))	0
B1 (RNF19A RING domain)	0
NLSELTPYILCSICKGYLIDATTITECLHTFCKSCIVRHFYYSNRCPKCNIVVHQTQPLY (PCGF6 RING domain (UniProt Q9BYE7))	0
B2 (SYTL4 RING domain)	0
B3 (DTX2 RING domain)	0
B4 (RFWD3 RING domain)	0
PEDRESLKSACVVCLSSFKSCVFLECGHVCSCTECYRALPEPKKCPICRQAITRVIPLY (MUL1 RING domain (UniProt Q969V5))	0
AVPSGLEENLCKICMDSPIDCVLLECGHMVTCTKCGKRMNECPICRQYVIRAVHVF (RFFL RING domain (UniProt Q8WZ73))	0
AMYLQENGIDCPKCKFSYALARGGCMHFHCTQCRHQFCSGCYNAFYAKNKC (RNF31 RING domain (UniProt Q96EP0))	0
FDGDVDPDLKCALCHKVLEDPLTTPCGHVFCAGCVLPWVVQEGSCPARCRGRLSAKELN (PDZRN3 RING domain (UniProt Q9UPQ7))	0
KLRKLKEAMLCMVCCEEEINSTFCPCGHTVCCESCAAQLQSCPVCRSRVEHVQHVY (MYLIP RING domain (UniProt Q8WY64))	0
YQNEVDDDLVCHICLQPLLQPLDTPCGHTFCYKCLRNFLQEKDFCPLDRKRLHFKLCKK (LNX2 RING domain (UniProt Q8N448))	0

Set 5 — technique: protein-binding microarray; form: double-stranded DNA, one strand shown; matrix: in vitro; concentration: 250 nM; notes: 60-bp whole probe; added: salmon DNA 0.4 mg/ml; relative to: random background probes; reading: higher = stronger binding; constant ends, left off below: GCCTAGCAC … GTCTTGATTCGCTTGACGCTGCTG
Target: Interferon regulatory factor 7, full length, phosphomimetic (IRF7, Homo sapiens, UniProt Q92985, residues 1-503, S101K/S471D/S472D/S475D/S476D/S477D/S483D/S484D/S487D)
Residues (chain): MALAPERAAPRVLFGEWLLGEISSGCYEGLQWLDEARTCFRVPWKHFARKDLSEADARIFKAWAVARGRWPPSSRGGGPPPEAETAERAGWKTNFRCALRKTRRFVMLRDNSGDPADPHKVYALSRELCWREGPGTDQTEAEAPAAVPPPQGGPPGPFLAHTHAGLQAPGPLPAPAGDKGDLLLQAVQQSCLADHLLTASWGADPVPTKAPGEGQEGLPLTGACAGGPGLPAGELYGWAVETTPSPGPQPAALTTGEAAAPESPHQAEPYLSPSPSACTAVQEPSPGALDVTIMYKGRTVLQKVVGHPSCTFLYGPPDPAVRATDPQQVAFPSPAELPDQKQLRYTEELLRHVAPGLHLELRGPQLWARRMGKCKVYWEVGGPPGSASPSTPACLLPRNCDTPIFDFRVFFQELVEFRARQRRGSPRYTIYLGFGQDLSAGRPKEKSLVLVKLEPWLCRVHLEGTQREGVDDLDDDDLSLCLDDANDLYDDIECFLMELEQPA
Sequence	log fluorescence [z-score]
TACAGGTTCTCTTTTATTTTGTGCTAG	1.37
ATAGTGATAGCTCTGGTAAAGTGCTAG	-1.02
GACGGACTGGGACTGGGAACGTGCTAG	-0.406
ATAGGTCTCCTTCTCCTTTAGTGCTAG	0.311
CTAGGTCTCGGTATCGGTTAGTGCTAG	3.62
GACGGTTTCCTTCTCCTCACGTGCTAG	2.41
GACGATTTTAGTCTCGAGACGTGCTAG	0.837
ACCACTTTCCATTTCTGTTTGTGCTAG	3.43
TGAGGTCTCGGTATCGGTTAGTGCTAG	2.6
TTAGGACTGGGTCTCAGTTAGTGCTAG	-0.0487
TTAGGTATCGACTTTCGGTGAGTGCTA	1.37
TTCAGTCCCCTCTTCTGGATGTGCTAG	0.516
GTAGGTCTCCTTATCCTTTAGTGCTAG	-0.0266
GACGGTTTCCTTTCCGTGACGTGCTAG	4.14
GACTGTTCCCTTTTCCTGACGTGCTAG	2.48
TCACTAATCTCACTCTGACTGTGCTAG	0.347
GACGGACTGGTCACTGGGGACGTGCTA	-0.906
GACGATTTCGGGACTGCAGACGTGCTA	0.167
GTAGAAAATTCATGTTATAAGTGCTAG	-0.0936

Repeated from above (set 3):
Variant	binding fitness
A57L	-0.242 natural log
V56Q	-1.38 natural log
A46G	-0.403 natural log
E44Q	-0.0392 natural log
Q58T	-0.0468 natural log
L38V	-1.06 natural log
A46L	-0.0702 natural log
A29G	-0.185 natural log
